Measurements from different studies.
Each numbered part is a random draw from the data of one study; scales do not carry over between parts. “And” joins repeats or separate records; there may be more than shown.
UniProt Q96PY6, sequence (whole entry, looked up): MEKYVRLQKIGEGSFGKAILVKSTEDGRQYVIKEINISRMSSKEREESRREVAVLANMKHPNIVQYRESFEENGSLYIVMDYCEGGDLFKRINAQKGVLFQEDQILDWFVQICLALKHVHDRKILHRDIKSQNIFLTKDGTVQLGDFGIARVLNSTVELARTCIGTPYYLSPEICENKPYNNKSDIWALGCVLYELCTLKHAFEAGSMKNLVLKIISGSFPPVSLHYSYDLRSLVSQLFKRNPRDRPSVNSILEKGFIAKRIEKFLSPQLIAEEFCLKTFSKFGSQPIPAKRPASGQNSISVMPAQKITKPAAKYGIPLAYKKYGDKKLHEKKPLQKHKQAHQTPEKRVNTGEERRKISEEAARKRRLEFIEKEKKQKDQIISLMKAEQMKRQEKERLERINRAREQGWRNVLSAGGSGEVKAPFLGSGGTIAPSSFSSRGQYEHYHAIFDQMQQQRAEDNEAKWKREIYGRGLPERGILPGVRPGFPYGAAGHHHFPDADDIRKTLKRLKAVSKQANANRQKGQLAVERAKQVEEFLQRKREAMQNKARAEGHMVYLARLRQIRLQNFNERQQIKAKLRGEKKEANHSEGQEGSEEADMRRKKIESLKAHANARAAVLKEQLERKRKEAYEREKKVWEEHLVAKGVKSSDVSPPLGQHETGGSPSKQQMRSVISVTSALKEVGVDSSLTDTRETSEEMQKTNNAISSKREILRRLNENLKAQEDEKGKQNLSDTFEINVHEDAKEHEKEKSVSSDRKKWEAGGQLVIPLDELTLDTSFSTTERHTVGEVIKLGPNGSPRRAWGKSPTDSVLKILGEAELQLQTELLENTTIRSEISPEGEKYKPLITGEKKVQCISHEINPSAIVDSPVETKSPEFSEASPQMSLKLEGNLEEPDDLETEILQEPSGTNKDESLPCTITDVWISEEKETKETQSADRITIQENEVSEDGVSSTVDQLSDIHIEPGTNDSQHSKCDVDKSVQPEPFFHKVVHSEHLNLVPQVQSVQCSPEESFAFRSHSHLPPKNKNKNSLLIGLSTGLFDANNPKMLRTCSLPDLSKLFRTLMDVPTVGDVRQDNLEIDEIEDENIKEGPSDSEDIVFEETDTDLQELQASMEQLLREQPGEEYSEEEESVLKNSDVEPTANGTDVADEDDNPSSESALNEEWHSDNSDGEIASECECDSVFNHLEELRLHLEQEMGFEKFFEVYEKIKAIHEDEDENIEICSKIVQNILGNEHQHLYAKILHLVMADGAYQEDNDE
UniProt P00519, sequence (whole entry, unmodified, looked up): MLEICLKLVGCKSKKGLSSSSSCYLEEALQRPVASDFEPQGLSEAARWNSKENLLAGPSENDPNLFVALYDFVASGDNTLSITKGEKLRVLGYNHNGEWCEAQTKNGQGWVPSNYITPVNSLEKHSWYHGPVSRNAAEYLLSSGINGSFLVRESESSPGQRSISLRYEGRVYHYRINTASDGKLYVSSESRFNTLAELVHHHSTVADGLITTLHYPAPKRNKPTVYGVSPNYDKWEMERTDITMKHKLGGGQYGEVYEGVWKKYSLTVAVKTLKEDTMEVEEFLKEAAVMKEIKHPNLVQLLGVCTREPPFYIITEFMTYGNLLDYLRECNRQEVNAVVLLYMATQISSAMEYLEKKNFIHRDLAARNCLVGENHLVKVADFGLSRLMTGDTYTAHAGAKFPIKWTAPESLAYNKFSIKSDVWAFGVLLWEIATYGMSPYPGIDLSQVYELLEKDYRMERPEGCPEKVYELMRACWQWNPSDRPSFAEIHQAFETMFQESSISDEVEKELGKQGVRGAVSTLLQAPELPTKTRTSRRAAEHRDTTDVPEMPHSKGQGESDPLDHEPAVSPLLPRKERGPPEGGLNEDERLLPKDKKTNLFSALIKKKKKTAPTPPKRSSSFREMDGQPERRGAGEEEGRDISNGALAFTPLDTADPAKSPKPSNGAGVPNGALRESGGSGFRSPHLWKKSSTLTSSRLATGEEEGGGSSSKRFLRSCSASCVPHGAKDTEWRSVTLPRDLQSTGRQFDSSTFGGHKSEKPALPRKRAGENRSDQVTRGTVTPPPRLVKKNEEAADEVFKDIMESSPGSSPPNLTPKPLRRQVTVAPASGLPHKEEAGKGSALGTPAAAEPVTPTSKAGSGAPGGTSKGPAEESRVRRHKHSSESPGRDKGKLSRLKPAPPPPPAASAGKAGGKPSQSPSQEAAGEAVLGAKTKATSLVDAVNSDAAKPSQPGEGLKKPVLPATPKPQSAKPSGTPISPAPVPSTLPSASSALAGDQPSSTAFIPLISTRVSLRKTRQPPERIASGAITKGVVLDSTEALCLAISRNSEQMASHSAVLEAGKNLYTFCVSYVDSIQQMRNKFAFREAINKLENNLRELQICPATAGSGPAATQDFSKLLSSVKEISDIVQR
UniProt Q8IVH8, sequence (whole entry, looked up): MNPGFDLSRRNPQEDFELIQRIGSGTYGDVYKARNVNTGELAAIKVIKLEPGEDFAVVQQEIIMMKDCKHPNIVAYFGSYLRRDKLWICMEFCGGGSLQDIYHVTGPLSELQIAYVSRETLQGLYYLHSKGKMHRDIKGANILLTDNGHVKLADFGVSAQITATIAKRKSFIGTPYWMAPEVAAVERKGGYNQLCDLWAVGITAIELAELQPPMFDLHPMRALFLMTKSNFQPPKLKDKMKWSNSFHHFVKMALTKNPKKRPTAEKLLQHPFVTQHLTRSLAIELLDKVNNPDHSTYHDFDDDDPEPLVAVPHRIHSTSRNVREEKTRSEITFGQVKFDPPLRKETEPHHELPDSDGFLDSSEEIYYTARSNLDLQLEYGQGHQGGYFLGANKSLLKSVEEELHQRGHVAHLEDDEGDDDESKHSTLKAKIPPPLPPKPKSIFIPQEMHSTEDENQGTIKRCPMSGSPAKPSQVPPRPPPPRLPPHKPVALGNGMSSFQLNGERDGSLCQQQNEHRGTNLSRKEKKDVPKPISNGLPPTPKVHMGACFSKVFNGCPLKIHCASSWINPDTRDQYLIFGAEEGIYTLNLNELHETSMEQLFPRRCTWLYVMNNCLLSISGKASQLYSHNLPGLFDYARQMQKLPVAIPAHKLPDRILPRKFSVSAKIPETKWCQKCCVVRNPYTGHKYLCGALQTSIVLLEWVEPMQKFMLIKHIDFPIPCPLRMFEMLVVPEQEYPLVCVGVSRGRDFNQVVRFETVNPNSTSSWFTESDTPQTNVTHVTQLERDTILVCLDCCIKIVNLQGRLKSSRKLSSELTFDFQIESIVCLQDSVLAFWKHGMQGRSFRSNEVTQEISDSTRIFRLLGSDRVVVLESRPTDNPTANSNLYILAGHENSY
UniProt Q8WU08, sequence (whole entry, looked up): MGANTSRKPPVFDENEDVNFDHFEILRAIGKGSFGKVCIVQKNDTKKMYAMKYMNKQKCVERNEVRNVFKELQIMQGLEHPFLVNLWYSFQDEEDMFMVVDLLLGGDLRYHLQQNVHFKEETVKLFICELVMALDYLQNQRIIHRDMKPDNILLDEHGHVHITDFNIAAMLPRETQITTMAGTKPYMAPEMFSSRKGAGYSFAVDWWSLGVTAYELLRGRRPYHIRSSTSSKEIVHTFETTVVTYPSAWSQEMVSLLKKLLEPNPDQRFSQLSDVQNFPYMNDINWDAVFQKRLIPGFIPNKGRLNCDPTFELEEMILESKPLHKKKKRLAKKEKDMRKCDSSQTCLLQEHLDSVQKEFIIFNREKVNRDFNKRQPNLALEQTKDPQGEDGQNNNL

Sample 1 — organism: Sarcocystis neurona; effect on: parasite growth; concentration: 10 µM; time: 96 h; relative to: untreated
`CN(C)c1ccc(O)c2c1C[C@H]1C[C@H]3[C@H](N(C)C)C(O)=C(C(N)=O)C(=O)[C@@]3(O)C(O)=C1C2=O` — result for “log2 fold change”: -0.78.
`COc1ccc2c3c1O[C@H]1C[C@@H](O)C=C[C@@]31CCN(C)C2`: “log2 fold change” 0.28.
For `CCOC(=O)C1=C(C)NC(C)=C(C(=O)OC)C1c1cccc([N+](=O)[O-])c1` (stereo not drawn), “log2 fold change” read -0.33.

Sample 2 — technique: competition with immobilised ligand; concentration: 1 µM
Structure (SMILES): CCCOc1ccc([C@H]2[C@H](C(=O)O)[C@@H](c3ccc4c(c3)OCO4)CN2CC(=O)Nc2c(CC)cccc2CC)cc1
For Mitogen-activated protein kinase kinase kinase kinase 3 (MAP4K3, Homo sapiens, UniProt Q8IVH8); cell-free assay: remaining binding read 85%.
The remaining binding was 87% (Serine/threonine-protein kinase Nek1 (NEK1, Homo sapiens, UniProt Q96PY6); cell-free assay).
It gave 70% for remaining binding (Tyrosine-protein kinase ABL1, phosphorylated (ABL1, Homo sapiens, UniProt P00519, E255K); binding).
Serine/threonine-protein kinase 32A (STK32A, Homo sapiens, UniProt Q8WU08); cell-free assay — remaining binding: 93%.

Mixed results
`c1ccc2c(-c3nn4c(-c5ccncc5)nnc4s3)c[nH]c2c1` gave a remaining activity of 158% and 147% and 143% and 122% and 106% and 127% and 159% (α-galactosidase (human, wild type); healthy dermal fibroblasts; 0.5 µM, without ISRIB; relative to: DMSO).
For `CCOC(=O)[C@@H]1CSCC(=O)N[C@@H](CC)C(=O)N(C)[C@@H](C)C(=O)N[C@@H](CC(C)C)C(=O)N2CCC[C@H]2C(=O)N(CC)CC(=O)N[C@@H](CC(C)C)C(=O)N(C)[C@@H](C)C(=O)N[C@@H](CC(C)C)C(=O)N1C`, the logD was 0.843 (hydrocarbon/water).

A few entries again (sample 2):
It gave 70% for remaining binding (Tyrosine-protein kinase ABL1, phosphorylated (ABL1, Homo sapiens, UniProt P00519, E255K); binding).
